# Results pooled from the literature.
# Each line is one published result; not all experiments were run side by side. ± marks the error that the study gave.
# Cell line: HeLa
Structure (SMILES),assay,setting,IC50 [µM]
[Co+2].[O-]c1c(I)cc(I)c2cccnc12.[O-]c1c(I)cc(I)c2cccnc12.c1cnc2c(c1)ccc1cccnc12,"cell growth or viability, MTT",48 h,10.6
CCN(CC)CCOC(=O)c1ccc(NC2OC(CO)C(O)C(O)C2O)cc1 (stereo not drawn),cell growth or viability,,> 10
COc1ccc(N2C(=O)CS/C2=N\N=C\c2cccc3cc4ccccc4nc23)cc1,"cell growth or viability, MTT",48 h,17.9
OC[C@H]1O[C@@](CO)(O[C@H]2O[C@H](CO)[C@@H](O)[C@H](O)[C@H]2O)[C@@H](O)[C@@H]1O,cell growth or viability,,> 10
COc1ccc(COC[C@](O)(CNCc2ccccc2)[C@@H]2CC[C@@H](C)C[C@H]2OCc2ccc(OC)cc2)cc1,"cell growth or viability, MTT",72 h,3.09
O=C(/C=C/c1ccccc1)Nc1cc(-c2ccnc(N3CCC(CO)CC3)c2)ccn1,"cell growth or viability, MTT",72 h,0.0664
O=C(Nc1cc(OCCN2CCCC2)c2ccccc2n1)c1cccc(C(=O)Nc2cc(OCCN3CCCC3)c3ccccc3n2)n1,"cell growth or viability, ATP luminescence",72 h,3
O=c1[nH]c(=O)n([C@@H]2O[C@H](CO)[C@@H](O)[C@H]2O)cc1F,cell growth or viability,,3.46
COc1ccc(CNC[C@](O)(COCc2ccccc2)[C@@H]2CC[C@@H](C)C[C@H]2OCc2ccccc2)cc1,"cell growth or viability, MTT",72 h,2.37
CCCCCCC(=O)[O][Pt]([NH2])([NH2])([Cl])([Cl])[O]C(=O)CCC(C)C1CCC2C3CCC4CC(O)CCC4(C)C3CCC12C (stereo not drawn),"cell growth or viability, MTT",72 h,1.1
Cc1ccc2c(Cl)cc(Cl)c([O-])c2n1.Cc1ccc2c(Cl)cc(Cl)c([O-])c2n1.[Co+2].c1ccc(-c2ccccn2)nc1,"cell growth or viability, MTT",48 h,4.53
Cc1c(COc2cc(OCc3cccc(C#N)c3)c(CN3CCCC[C@@H]3C(=O)O)cc2Cl)cccc1-c1cccc(OCCCCCC(=O)NO)c1,"cell growth or viability, CCK-8",48 h,14.5
CCC(=CCc1c(O)cc2c(c1O)C(=O)CC(c1ccccc1O)O2)CC (stereo not drawn),"cell growth or viability, MTT",48 h,36.2
CCCN1C(=O)/C(=C/C(=O)OCC)S/C1=N\N=C\c1cccc2cc3ccccc3nc12,"cell growth or viability, MTT",48 h,33.3
NC[C@H]1O[C@H](O[C@H]2[C@H](O)[C@@H](O[C@H]3O[C@H](CO)[C@@H](O)[C@H](N)[C@H]3O)[C@H](N)C[C@@H]2N)[C@H](N)C[C@@H]1O,cell growth or viability,,> 10
Cc1ccc(-c2ccc(C)cn2)nc1.[Co+2].[O-]c1c(I)cc(Cl)c2cccnc12.[O-]c1c(I)cc(Cl)c2cccnc12,"cell growth or viability, MTT",48 h,8.47
CC(=O)NCCOCCOCCOCCNC(=O)c1cc(C(=O)N2CCNCCNCCNCC2)c(O)c(C(=O)N2CCNCCNCCNCC2)c1,"cell growth or viability, MTT",24 h,> 1000
COc1ccccc1CNC[C@](O)(COCc1ccccc1)[C@@H]1CC[C@@H](C)C[C@H]1OCc1ccccc1,"cell growth or viability, MTT",72 h,2.05
Cc1ccc2c(Br)cc(Br)c([O-])c2n1.Cc1ccc2c(Br)cc(Br)c([O-])c2n1.[Co+2].c1cnc2c(c1)ccc1cccnc12,"cell growth or viability, MTT",48 h,6.17
CCOc1cncc(-c2ccc(NC(=O)C3(c4ccnc(NS(=O)(=O)C5CC5)n4)CCOCC3)nc2)n1,"cell growth or viability, ATP luminescence",72 h,10
Cc1c(COc2cc(OCc3cccc(C#N)c3)c(CNC(CO)(CO)CO)cc2Cl)cccc1-c1cccc(OCCCCCC(=O)NO)c1,"cell growth or viability, CCK-8",48 h,4.27
CCOC(=O)/C=C1\S/C(=N\N=C\c2cccc3cc4ccccc4nc23)N(C)C1=O,"cell growth or viability, MTT",48 h,18.8
CCCC[N+]1=c2cc3c4cc2[O][Mn-2]1(=[C]=O)(=[C]=O)(=[C]=O)[n+]1ccc(cc1)C(=O)OCCOC(=O)c1cc[n+](cc1)[Mn-2](=[C]=O)(=[C]=O)(=[C]=O)([O]3)[N+]=4CCCC,"cell growth, MTT","48 h, LED photolysed 1 h",11.6 ± 4.58
CCC(=CCc1c(O)cc2c(c1O)C(=O)CC(c1cccc(OC)c1O)O2)CC (stereo not drawn),"cell growth or viability, MTT",48 h,20.9
CCCC[N+]1=c2cc3c4cc2[O][Mn-2]1(=[C]=O)(=[C]=O)(=[C]=O)[n+]1ccc(cc1)C(=O)Nc1ccccc1NC(=O)c1cc[n+](cc1)[Mn-2](=[C]=O)(=[C]=O)(=[C]=O)([O]3)[N+]=4CCCC,"cell growth, MTT","48 h, LED photolysed 1 h",0.78 ± 0.03
Cc1c(COc2cc(OCc3cccc(C#N)c3)c(CN3CCCC[C@@H]3C(=O)O)cc2Cl)cccc1-c1cccc(OCCCCCCC(=O)NO)c1,"cell growth or viability, CCK-8",48 h,> 20
O=C1O[C@H]([C@@H](O)CO)C(O)=C1O[C@H]1O[C@H](CO)[C@@H](O)[C@H](O)[C@H]1O,cell growth or viability,,> 10
C[C@@H]1CC[C@@H]([C@@](O)(CNCc2cccc(F)c2)COCc2ccccc2)[C@H](OCc2ccccc2)C1,"cell growth or viability, MTT",72 h,2.32
NCCCn1cc(COc2cc(C(=O)Nc3cc(OCCN)c4ccccc4n3)nc(C(=O)Nc3cc(OCCN)c4ccccc4n3)c2)nn1,"cell growth or viability, ATP luminescence",72 h,> 40
CC(C)OC(=O)[C@H](CO)NCc1cc(Cl)c(OCc2cccc(-c3ccccc3)c2Br)cc1OCc1cccnc1,"cell growth or viability, MTT",,> 10
CCCN1C(=O)CS/C1=N\N=C\c1cccc2cc3ccccc3nc12,"cell growth or viability, MTT",48 h,30.4
COc1cccc(CNC[C@@](O)(COCc2ccccc2)[C@@H]2CC[C@@H](C)C[C@H]2OCc2ccccc2)c1,"cell growth or viability, MTT",72 h,4.63
CCC(=CCc1c(O)cc2c(c1O)C(=O)CC(c1cc(O)cc(OC)c1)O2)CC (stereo not drawn),"cell growth or viability, MTT",48 h,26.2
O=C(NCCOCCOCCOCCNC(=O)c1cc2ccccc2c2ccccc12)c1cc(C(=O)N2CCNCCNCCNCC2)c(O)c(C(=O)N2CCNCCNCCNCC2)c1,"cell growth or viability, MTT",24 h,> 1000
CN(C)c1ccc(/C=C/c2cc(/C=C3\Sc4ccccc4N3CCCN3CCCC3)c3ccccc3[n+]2C)cc1,"cell growth or viability, MTT",36 h,4.2
CCCC[N+]1=c2cc3c4cc2[O][Mn-2]1(=[C]=O)(=[C]=O)(=[C]=O)[n+]1ccc(cc1)C(=O)NCCNC(=O)c1cc[n+](cc1)[Mn-2](=[C]=O)(=[C]=O)(=[C]=O)([O]3)[N+]=4CCCC,"cell growth, MTT","48 h, LED photolysed 1 h",0.98 ± 0.38
O=C1CS/C(=N\N=C\c2cccc3cc4ccccc4nc23)N1c1ccc([N+](=O)[O-])cc1,"cell growth or viability, MTT",48 h,32
Cc1c(C)c2cccnc2c2ncccc12,"cell growth or viability, MTT",48 h,> 50
O=C1CS/C(=N\N=C\c2cccc3cc4ccccc4nc23)N1c1ccccc1,"cell growth or viability, MTT",48 h,12.9
CCC(=CCc1c(O)cc2c(c1O)C(=O)CC(c1ccc(O)cc1OC)O2)CC (stereo not drawn),"cell growth or viability, MTT",48 h,21.2
COc1ccnc(-c2cc(OC)ccn2)c1.[Co+2].[O-]c1c(I)cc(I)c2cccnc12.[O-]c1c(I)cc(I)c2cccnc12,"cell growth or viability, MTT",48 h,9.54
CC(=O)NCCOCCNC(=O)c1cc(C(=O)N2CCNCCNCCNCC2)c(O)c(C(=O)N2CCNCCNCCNCC2)c1,"cell growth or viability, MTT",24 h,> 1000

# Excerpt of the above:
Structure (SMILES),assay,setting,IC50 [µM]
CCC(=CCc1c(O)cc2c(c1O)C(=O)CC(c1cc(O)cc(OC)c1)O2)CC (stereo not drawn),"cell growth or viability, MTT",48 h,26.2
O=C(NCCOCCOCCOCCNC(=O)c1cc2ccccc2c2ccccc12)c1cc(C(=O)N2CCNCCNCCNCC2)c(O)c(C(=O)N2CCNCCNCCNCC2)c1,"cell growth or viability, MTT",24 h,> 1000
CN(C)c1ccc(/C=C/c2cc(/C=C3\Sc4ccccc4N3CCCN3CCCC3)c3ccccc3[n+]2C)cc1,"cell growth or viability, MTT",36 h,4.2
CCCC[N+]1=c2cc3c4cc2[O][Mn-2]1(=[C]=O)(=[C]=O)(=[C]=O)[n+]1ccc(cc1)C(=O)NCCNC(=O)c1cc[n+](cc1)[Mn-2](=[C]=O)(=[C]=O)(=[C]=O)([O]3)[N+]=4CCCC,"cell growth, MTT","48 h, LED photolysed 1 h",0.98 ± 0.38
O=C1CS/C(=N\N=C\c2cccc3cc4ccccc4nc23)N1c1ccc([N+](=O)[O-])cc1,"cell growth or viability, MTT",48 h,32
Cc1c(C)c2cccnc2c2ncccc12,"cell growth or viability, MTT",48 h,> 50
O=C1CS/C(=N\N=C\c2cccc3cc4ccccc4nc23)N1c1ccccc1,"cell growth or viability, MTT",48 h,12.9
